Assay results gathered from unrelated publications.
± marks the error that the study gave.

O=C([O-])CN1CCN(CC(=O)O)C[C@H](Cc2ccc(NC(=S)NCCCCC(NC(=O)CCCCCCC(=O)NCCCC[C@H](NC(=O)N[C@@H](CCC(=O)O)C(=O)O)C(=O)O)C(=O)O)cc2)N(CC(=O)[O-])Cc2cccc(n2)C1.[64Cu+2] (stereo partly drawn) — tissue uptake (mice with PSMA+/- PC-3 tumours, PSMA+ PC-3 PIP tumour; 2 h post-injection, same-day comparison): 24.1 ± 10.1 %ID/g
[2H]C([2H])([18F])[C@]([2H])(N)C(=O)O — tissue uptake (PET; athymic nude mice, U-87 MG, tumor; dose not given, 30 min post-injection): 1.89 ± 0.25 %ID/cc
CC[C@H](C)[C@H](NC(=O)[C@H](CCCCN)NC(=O)CNC(=O)[C@H](CC(C)C)NC(=O)[C@H](Cc1ccccc1)NC(=O)[C@H](CCCCN)NC(=O)[C@H](CO)NC(=O)[C@H](Cc1ccccc1)NC(=O)[C@H](Cc1c[nH]c2ccccc12)NC(=O)[C@H](CCC(N)=O)NC(=O)[C@@H](NC(=O)[C@H](Cc1ccccc1)NC(=O)CCCCCNC(=O)CN1CCN(CC(=O)O)CCN(CC(=O)O)CCN(CC(=O)O)CC1)C(C)C)C(=O)N[C@@H](CCC(=O)O)C(=O)N1CCC[C@H]1C(=O)N[C@@H](CC(=O)O)C(=O)N[C@H](C(=O)N[C@@H](CO)C(=O)N[C@@H](CCC(N)=O)C(=O)N[C@H](C(=O)N[C@@H](CCC(N)=O)C(=O)N[C@@H](CC(=O)O)C(=O)N1CCC[C@H]1C(=O)N[C@@H](CC(N)=O)C(=O)N[C@@H](CC(=O)O)C(=O)N[C@@H](CCC(N)=O)C(=O)N[C@@H](Cc1ccc(O)cc1)C(=O)N[C@@H](CCC(=O)O)C(=O)N1CCC[C@H]1C(=O)N[C@@H](Cc1ccccc1)C(=O)O)C(C)C)C(C)C [copper-64 labelled] — tissue uptake (C57BL/6 mice, small intestine; with: LPS 3 mg/kg intratracheal): 6.52 ± 0.3 %ID/g
CSCC[C@H](NC(=O)CNC(=O)[C@H](CCCCN)NC(=O)[C@H](CC(C)C)NC(=O)[C@@H]1CCCN1C(=O)[C@H](CO)NC(=O)[C@H](Cc1c[nH]cn1)NC(=O)[C@H](Cc1c[nH]c2ccccc12)NC(=O)[C@H](CCCNC(=N)N)NC(=O)[C@H](CC(C)C)NC(=O)[C@H](CCCNC(=N)N)NC(=O)[C@H](Cc1c[nH]c2ccccc12)NC(=O)[C@H](CS)NC(=O)CCCCCNC(=O)CN1CCN(CC(=O)O)CCN(CC(=O)O)CCN(CC(=O)O)CC1)C(=O)O [copper-64 labelled] — tissue uptake (ex vivo biodistribution; BALB/c nude mice, bladder; intravenous, dose not given, 18 h, Huh-7 tumour-bearing): 1.25 %ID/g
C[C@H](O)[C@@H](NC(=O)[C@H]1CCCN1C(=O)[C@@H](CCCCN)NC(=O)[C@@H](CO)NC(=O)[C@@H](Cc1ccc(O)cc1)NC(=O)[C@@H](CC(N)=O)NC(=O)CCOCCOCCOCCNC(=O)CN1CCN(CC(=O)O)CCN(CC(=O)O)CCN(CC(=O)O)CC1)C(=O)N[C@H](CC(=O)O)C(=O)N[C@H](CCCNC(=N)N)C(=O)N[C@H](CCC(N)=O)C(=O)N[C@H](Cc1ccc(O)cc1)C(=O)N[C@H](Cc1c[nH]cn1)C(=O)N[C@H](Cc1ccccc1)C(N)=O [gallium-68 labelled] — tissue uptake (BALB/c nude mice U-87 MG tumour, heart; intravenous, 1.85 MBq, 1 h, radiolabelled): 0.06 ± 0.02 %ID/g
CC[C@H](C)[C@H](NC(=O)[C@H](CCCNC(=N)N)NC(=O)[C@H](CCCCN)NC(=O)[C@H](Cc1ccc(O)cc1)NC(=O)[C@H](CC(=O)O)NC(=O)[C@H](C)NC(=O)CNC(=O)CCOCCOCCOCCNC(=O)CN1CCN(CC(=O)O)CCN(CC(=O)O)CCN(CC(=O)O)CC1)C(=O)N[C@H](C(=O)N[C@H](C(=O)N[C@@H](CCCCN)C(=O)N[C@H](C(=O)N[C@@H](CC(N)=O)C(N)=O)C(C)C)C(C)C)[C@@H](C)O [copper-64 labelled] — tissue uptake (ex vivo gamma counting; C57BL/6J male mice, B16-F10 tumour, bone; intravenous, 1.85 MBq, 20 min): 0.899 ± 0.061 %ID/g
CC(C)C[C@@H](NC(=O)[C@@H](CCCNC(=N)N)NC(=O)[C@@H](Cc1c[nH]cn1)NC(=O)[C@@H](Cc1c[nH]c2ccccc12)NC(=O)[C@@H](Cc1c[nH]cn1)NC(=O)[C@@H](Cc1ccccc1)NC(=O)[C@H](NC(=O)[C@@H](Cc1ccc(O)cc1)NC(=O)CNC(=O)CNC(=O)CCOCCOCCOCCNC(=O)CN1CCN(CC(=O)O)CCN(CC(=O)O)CC1)[C@H](C)O)C(=O)N[C@H](CC(N)=O)C(=O)N1CCC[C@@H]1C(=O)O [gallium-68 labelled] — tissue uptake (C57BL/6 mice, male, lung; intravenous, 1.85 MBq, 60 min, with: GP12 blocking): 1.13 ± 0.32 %ID/g
CC[C@H](C)[C@H](NC(=O)[C@H](CCCNC(=N)N)NC(=O)[C@H](CCCCN)NC(=O)[C@H](Cc1ccc(O)cc1)NC(=O)[C@H](CC(=O)O)NC(=O)[C@H](C)NC(=O)CNC(=O)CCOCCOCCOCCNC(=O)CN1CCN(CC(=O)O)CCN(CC(=O)O)CCN(CC(=O)O)CC1)C(=O)N[C@H](C(=O)N[C@@H](CC(C)C)C(=O)N[C@@H](CCCCN)C(=O)N[C@H](C(=O)N[C@@H](CC(N)=O)C(N)=O)C(C)C)[C@@H](C)O [copper-64 labelled] — tissue uptake (ex vivo gamma counting; C57BL/6J male mice, B16-F10 tumour, blood; intravenous, 1.85 MBq, 5 min): 6.83 ± 0.356 %ID/g
CCCC[C@H]1C(=O)N(C)[C@@H](CCCC)C(=O)N[C@@H](CCCNC(=O)CN2CCN(CC(=O)O)CCN(CC(=O)O)CCN(CC(=O)O)CC2)C(=O)N[C@H](C(=O)NCC(N)=O)CSCC(=O)N[C@@H](Cc2ccc(O)cc2)C(=O)N(C)[C@@H](C)C(=O)N[C@@H](CC(N)=O)C(=O)N2CCC[C@H]2C(=O)N[C@@H](Cc2c[nH]cn2)C(=O)N[C@@H](CC(C)C)C(=O)N(C)CC(=O)N[C@@H](Cc2c[nH]c3ccccc23)C(=O)N[C@@H](CO)C(=O)N[C@@H](Cc2c[nH]c3ccccc23)C(=O)N1C [gallium-68 labelled] — tissue uptake (NOD/SCID mice, CHO-hPD-L1 xenograft, brain; 60 min, with: blocking agent 50 µg co-injected): 0.38 ± 0.07 %ID/g
